Experimental data of several laboratories.
Several values in a cell are separate wells, animals, samples, runs or records. ± marks the error that the study gave.
Sigmar1: Sigma non-opioid intracellular receptor 1 (Sigmar1, Rattus norvegicus, UniProt Q9R0C9)
Oprk1: Kappa-type opioid receptor (Oprk1, Rattus norvegicus, UniProt P34975)
MC1R: Melanocyte-stimulating hormone receptor (MC1R, Homo sapiens, UniProt Q01726)
NPY5R: Neuropeptide Y receptor type 5 (NPY5R, Homo sapiens, UniProt Q15761)
ampC: Beta-lactamase (ampC, Escherichia coli K-12, UniProt P00811)

SMILES | target | assay | system | setting | Ki
N=C(N)NC(=O)c1ccc(C(=O)NCCCC[C@H](NC(=O)CNC(=O)CCC(=O)NN=Cc2cc(C=NNC(=O)CCC(=O)NCC(=O)N[C@@H](CCCCNC(=O)c3ccc(C(=O)NC(=N)N)[nH]3)C(=O)N[C@@H](Cc3c[nH]c4ccccc34)C(=O)N[C@@H](CCCCN)C(N)=O)cc(C=NNC(=O)CCC(=O)NCC(=O)N[C@@H](CCCCNC(=O)c3ccc(C(=O)NC(=N)N)[nH]3)C(=O)N[C@@H](Cc3c[nH]c4ccccc34)C(=O)N[C@@H](CCCCN)C(N)=O)c2)C(=O)N[C@@H](Cc2c[nH]c3ccccc23)C(=O)N[C@@H](CCCCN)C(N)=O)[nH]1 | Tryptase beta-2 (TPSB2, Homo sapiens, UniProt P20231) | enzyme activity, low-affinity mode, inhibitor |  |  | 30 µM
CCCCCCCCCCCCCCCc1ccc(C(Br)P(=O)(O)O)cc1 (racemic) | Autotaxin (ENPP2, Homo sapiens, UniProt Q13822) |  |  | free enzyme | 6.1 µM
CCCC(=O)c1ccc2c(c1)sc(=O)n2CCCCN1CCCCCC1 | Sigmar1 | binding, radioligand binding | rat liver membranes | with: [3H](+)-pentazocine 5 nM | 0.0048 ± 0.0001 µM
COC(=O)N(C)[C@@H](Cc1ccccc1)C(=O)N[C@@H](Cc1ccccc1)C(=O)N[C@@H](Cc1ccc(O)cc1)C(=O)N[C@@H](CCCNC(=N)N)C(=O)N[C@@H](CC(C)C)C(=O)N[C@@H](CCCNC(=N)N)C(=O)N[C@@H](CCCNC(=N)N)C(=O)N[C@H](C)C(=O)N[C@@H](CCCNC(=N)N)C(=O)N1CCC[C@H]1C(=O)N[C@@H](CCCCN)C(N)=O | Oprk1 | ligand displacement, radioligand |  |  | 0.0058 µM
CCCCCCCCCCN(O)C(=O)CCCCC[C@@H]1NC(=O)[C@H]2CCCN2C(=O)[C@H](Cc2ccccc2)NC(=O)[C@H](Cc2ccccc2)NC1=O | HDAC11 (Homo sapiens, UniProt Q96DB2) | enzyme activity, inhibitor, fluorescence |  |  | 0.0047 µM
C[n+]1cn([C@@H]2O[C@H](COP(=O)([S-])OP(=O)(O)OP(=O)(O)OP(=O)([S-])OC[C@H]3O[C@@H](n4c[n+](C)c5c(O)nc(N)nc54)[C@H](O)[C@@H]3O)[C@@H](O)[C@H]2O)c2nc(N)nc(O)c21 (stereo partly shown) | mRNA decapping complex subunit 2, with Dcp1 (dcp2, Schizosaccharomyces pombe, UniProt O13828) | mRNA decapping, inhibitor |  | single turnover, free enzyme, with: Dcp1-Dcp2 complex, capped 29-nt RNA | 65 ± 7 µM
CC[C@H](C)[C@H](NC(=O)CN)C(=O)N[C@H](C(=O)N[C@@H](CC(N)=O)C(=O)N[C@H](C(=O)N[C@@H](CC(C)C)C(=O)N[C@@H](CCC(N)=O)C(=O)N[C@@H](CCCCN)C(=O)N[C@@H](Cc1ccc(O)cc1)C(=O)N[C@@H](Cc1ccc(O)cc1)C(=O)N[C@H]1CSSC[C@@H]2NC(=O)[C@H](CCCCN)NC(=O)[C@H](CCCNC(=N)N)NC(=O)CNC(=O)[C@H](CCCNC(=N)N)NC(=O)[C@H]([C@@H](C)O)NC(=O)[C@H](CO)NC(=O)[C@@H]3CSSC[C@H](NC(=O)[C@H](CCCNC(=N)N)NC(=O)CNC(=O)CNC(=O)[C@H](CCCNC(=N)N)NC(=O)[C@H](C(C)C)NC(=O)[C@H](CCCNC(=N)N)NC1=O)C(=O)N[C@@H](C)C(=O)N[C@@H](C(C)C)C(=O)N[C@@H](CC(C)C)C(=O)N[C@@H](CO)C(=O)N[C@@H](CSSC[C@@H](C(=O)N[C@@H](C)C(=O)N[C@@H](CCCNC(=N)N)C(=O)N[C@@H](C)C(=O)N[C@@H](CCCCN)C(N)=O)NC2=O)C(=O)N[C@@H](CC(C)C)C(=O)N1CCC[C@H]1C(=O)N[C@@H](CCCCN)C(=O)N[C@@H](CCC(=O)O)C(=O)N[C@@H](CCC(=O)O)C(=O)N[C@@H](CCC(N)=O)C(=O)N[C@@H]([C@@H](C)CC)C(=O)NCC(=O)N[C@@H](CCCCN)C(=O)N3)[C@@H](C)O)[C@@H](C)CC | MC1R | ligand displacement in cells |  |  | 0.099 µM
Cc1cc2c(cc1Cl)-c1c(c(C(=O)NC(C)C3CCCCC3)nn1-c1ccc(Cl)cc1Cl)C2 (stereo not shown) | Cnr1 (Mus musculus, UniProt P47746) | binding, radioligand displacement | mouse brain homogenate without cerebellum | with: [3H]CP-55,940 | 2.95 ± 0.55 µM
COC(=O)C1C(OC(c2ccc(Cl)cc2)c2ccc(Cl)cc2)CC2CCC1N2C (single isomer, unassigned) | CHRM3 (Homo sapiens, UniProt P20309) | ligand displacement, radioligand |  |  | 2.39 µM
Cc1cc(O)cc(C)c1CC(N)C(=O)NC1CCNc2c(C)cc(Cc3ccccc3)cc21 (stereo not shown) | OPRK1 (Homo sapiens, UniProt P41145) | ligand displacement, radioligand |  | cell membranes | 0.017 µM
CC(=O)N[C@H](CCCNC(=N)N)C(=O)N[C@@H](Cc1ccc(O)cc1)C(=O)N[C@@H](CCCNC(=N)NC(=O)NCCCCN)C(=O)N[C@@H](CC(C)C)C(=O)N[C@@H](CCCNC(=N)N)C(=O)N[C@@H](Cc1ccc(O)cc1)C(N)=O | NPY5R | ligand displacement, radioligand |  |  | > 5 µM
CC(=O)N(C)[C@@H](Cc1ccccc1)C(=O)N[C@@H](Cc1ccccc1)C(=O)N[C@@H](Cc1ccc(O)cc1)C(=O)N[C@@H](CCCNC(=N)N)C(=O)N[C@@H](CC(C)C)C(=O)N[C@@H](CCCNC(=N)N)C(=O)N[C@@H](CCCNC(=N)N)C(=O)N[C@H](C)C(=O)N[C@@H](CCCNC(=N)N)C(=O)N1CCC[C@H]1C(=O)N[C@@H](CCCCN)C(N)=O | Oprk1 | ligand displacement, radioligand |  |  | 0.0373 µM
O=c1sc2ccccc2n1CCCCN1CCCCCC1 | Sigmar1 | binding, radioligand binding | rat liver membranes | with: [3H](+)-pentazocine 5 nM | 0.0032 ± 2e-05 µM
CC(C)Oc1ccc(B(O)O)c(F)n1 | ampC | enzyme activity, inhibitor |  | with: CENTA | 0.48 µM
CC[C@H](C)[C@H](NC(=O)CN)C(=O)N[C@H](C(=O)N[C@@H](CC(N)=O)C(=O)N[C@H](C(=O)N[C@@H](CC(C)C)C(=O)N[C@@H](CCC(N)=O)C(=O)N[C@@H](CCCCN)C(=O)N[C@@H](Cc1ccc(O)cc1)C(=O)N[C@@H](Cc1ccc(O)cc1)C(=O)N[C@H]1CSSC[C@@H]2NC(=O)[C@H](CCCCN)NC(=O)[C@H](C)NC(=O)CNC(=O)[C@H](CCCNC(=N)N)NC(=O)[C@H]([C@@H](C)O)NC(=O)[C@H](CO)NC(=O)[C@@H]3CSSC[C@H](NC(=O)[C@H](CCCNC(=N)N)NC(=O)CNC(=O)CNC(=O)[C@H](CCCNC(=N)N)NC(=O)[C@H](C(C)C)NC(=O)[C@H](CCCNC(=N)N)NC1=O)C(=O)N[C@@H](C)C(=O)N[C@@H](C(C)C)C(=O)N[C@@H](CC(C)C)C(=O)N[C@@H](CO)C(=O)N[C@@H](CSSC[C@@H](C(=O)N[C@@H](CCCNC(=N)N)C(=O)N[C@@H](CCCNC(=N)N)C(=O)N[C@@H](CCCCN)C(=O)N[C@@H](CCCCN)C(N)=O)NC2=O)C(=O)N[C@@H](CC(C)C)C(=O)N1CCC[C@H]1C(=O)N[C@@H](CCCCN)C(=O)N[C@@H](CCC(=O)O)C(=O)N[C@@H](CCC(=O)O)C(=O)N[C@@H](CCC(N)=O)C(=O)N[C@@H]([C@@H](C)CC)C(=O)NCC(=O)N[C@@H](CCCCN)C(=O)N3)[C@@H](C)O)[C@@H](C)CC | MC1R | ligand displacement in cells |  |  | 0.038 µM
CC[C@H](C)[C@H](NC(=O)[C@@H]1CSCC(=O)NCCCC[C@H](NC(=O)[C@H](Cc2ccc(O)cc2)NC(=O)CNC(C)=O)C(=O)N[C@@H](CO)C(=O)N[C@@H](CCCNC(=N)N)C(=O)N[C@@H](CO)C(=O)N[C@@H](Cc2ccc(O)cc2)C(=O)N2CCC[C@H]2C(=O)N2CCC[C@H]2C(=O)N[C@@H](C(C)C)C(=O)N1)C(=O)N1CCC[C@H]1C(=O)N[C@@H](CC(=O)O)C(N)=O | Mannan-binding lectin serine protease 2 (Homo sapiens, UniProt O00187) | enzyme activity, inhibitor |  |  | 41 µM
CC(=O)N[C@@H](CCCNC(=N)N)C(=O)N[C@@H](Cc1ccc(O)cc1)C(=O)N[C@@H](CCCNC(=N)NC(=O)NCCCCN)C(=O)N[C@@H](CC(C)C)C(=O)N[C@@H](CCCNC(=N)N)C(=O)N[C@@H](Cc1ccc(O)cc1)C(=O)O | NPY1R (Homo sapiens, UniProt P25929) | ligand displacement, radioligand |  |  | > 5 µM
O=C(O)CN(c1ccccc1)S(=O)(=O)c1ccccc1 | ampC |  |  |  | 200 µM
CCCc1ccc2c(c1)sc(=O)n2CCCCN1CCCCCC1 | Sigmar1 | binding, radioligand binding | rat liver membranes | with: [3H](+)-pentazocine 5 nM | 0.0061 ± 0.0012 µM
NC(=S)N/N=C/c1ccc(OCc2cccc(F)c2)cc1 | MAOB (Homo sapiens, UniProt P27338) | enzyme activity, inhibitor |  |  | 0.074 µM
C[C@]12CCC[C@H]1[C@@H]1CCc3c(cc(Br)c(O)c3Br)[C@H]1CC2 | AKR1C2 (Homo sapiens, UniProt P52895) | enzyme activity, inhibitor, absorbance |  |  | 1.98 µM
CC[C@H](C)CN(C[C@@H](O)[C@H](Cc1ccccc1)NC(=O)c1cccc(O)c1)S(=O)(=O)c1ccc2ncsc2c1 | Gag-Pol polyprotein, protease (Human immunodeficiency virus type 1 group M subtype B, UniProt P03369, G538V/I544V/L500I/V572A) |  |  |  | 0.000724 ± 0.000377 µM
CC(=O)N[C@@H](Cc1ccc(O)cc1)C(=O)N[C@@H](CCCNC(=N)NC(=O)NCCCCN)C(=O)N[C@@H](CC(C)C)C(=O)N[C@@H](CCCNC(=N)N)C(=O)N[C@@H](Cc1ccc(O)cc1)C(N)=O | NPY5R | ligand displacement, radioligand |  |  | > 5 µM
CC(C)[C@H](NC(=O)c1ccc(CCc2nc3c(c(=O)[nH]2)CCC3)cc1)C(=O)NC1CNC1 | Collagenase 3 (MMP13, Homo sapiens, UniProt P45452) | enzyme activity, inhibitor |  |  | 0.042 µM and 0.0419 µM
CCCCCCCC[C@@H](O)[C@H](C)C(=O)N[C@H](CCC(=O)O)C(=O)N[C@H](CC(=O)O)C(=O)N[C@H](CC(C)C)C(=O)N[C@H](CC(C)C)C(=O)N[C@H](CC(C)C)C(=O)N[C@H](CC(C)C)C(=O)N[C@@H](C(N)=O)C(C)C | Mediator of RNA polymerase II transcription subunit 25, ACID domain; with ATF6α (Homo sapiens, UniProt Q71SY5) | fluorescence polarization |  | with: NP40 or Triton X-100 | no effect
